Measured values collected from several papers.
Each line is one published result; not all experiments were run side by side. ± marks the error that the study gave.
Cysltr2: Cysteinyl leukotriene receptor 2 (Cysltr2, Mus musculus, UniProt Q920A1)
Chain of UniProt Q920A1 (whole entry, looked up): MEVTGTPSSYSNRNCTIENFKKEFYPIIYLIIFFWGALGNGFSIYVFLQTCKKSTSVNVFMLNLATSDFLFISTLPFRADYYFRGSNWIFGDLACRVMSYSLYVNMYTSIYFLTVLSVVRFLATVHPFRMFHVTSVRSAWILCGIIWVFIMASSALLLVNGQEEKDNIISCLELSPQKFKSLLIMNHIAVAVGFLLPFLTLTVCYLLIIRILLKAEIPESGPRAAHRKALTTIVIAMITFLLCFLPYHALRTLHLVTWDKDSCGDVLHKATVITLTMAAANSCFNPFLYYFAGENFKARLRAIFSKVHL
Kir3.1/Kir3.2: Kir3.1/Kir3.2 (Homo sapiens, UniProt P48051+P48549)
Chain of UniProt P48051 (whole entry, looked up): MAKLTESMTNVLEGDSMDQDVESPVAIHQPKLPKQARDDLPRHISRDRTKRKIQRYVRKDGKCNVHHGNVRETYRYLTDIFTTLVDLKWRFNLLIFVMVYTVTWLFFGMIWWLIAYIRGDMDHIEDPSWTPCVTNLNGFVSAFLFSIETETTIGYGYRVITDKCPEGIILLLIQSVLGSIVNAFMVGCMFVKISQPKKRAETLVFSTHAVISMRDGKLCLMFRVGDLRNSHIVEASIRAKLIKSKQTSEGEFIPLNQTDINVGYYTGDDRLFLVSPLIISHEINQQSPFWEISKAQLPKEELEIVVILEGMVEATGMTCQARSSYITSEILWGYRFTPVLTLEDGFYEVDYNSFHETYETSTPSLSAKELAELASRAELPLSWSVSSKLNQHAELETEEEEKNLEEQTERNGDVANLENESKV
Chain of UniProt P48549 (whole entry, looked up): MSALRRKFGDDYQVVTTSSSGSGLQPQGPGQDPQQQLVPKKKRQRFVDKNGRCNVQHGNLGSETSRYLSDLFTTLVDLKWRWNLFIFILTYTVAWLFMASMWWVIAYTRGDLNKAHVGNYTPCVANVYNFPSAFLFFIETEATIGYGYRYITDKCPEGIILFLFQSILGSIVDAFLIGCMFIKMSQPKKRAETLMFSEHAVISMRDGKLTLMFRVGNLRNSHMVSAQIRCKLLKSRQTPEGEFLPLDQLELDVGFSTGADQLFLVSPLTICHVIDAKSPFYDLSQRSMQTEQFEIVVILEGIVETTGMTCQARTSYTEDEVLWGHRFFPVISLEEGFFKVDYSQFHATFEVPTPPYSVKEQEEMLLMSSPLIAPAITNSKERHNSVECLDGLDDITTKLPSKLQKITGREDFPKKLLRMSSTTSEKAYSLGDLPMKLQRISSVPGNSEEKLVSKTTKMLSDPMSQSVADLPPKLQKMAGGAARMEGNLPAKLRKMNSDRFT
CD209: CD209 antigen (CD209, Homo sapiens, UniProt Q9NNX6)
Chain of UniProt Q9NNX6 (whole entry, looked up): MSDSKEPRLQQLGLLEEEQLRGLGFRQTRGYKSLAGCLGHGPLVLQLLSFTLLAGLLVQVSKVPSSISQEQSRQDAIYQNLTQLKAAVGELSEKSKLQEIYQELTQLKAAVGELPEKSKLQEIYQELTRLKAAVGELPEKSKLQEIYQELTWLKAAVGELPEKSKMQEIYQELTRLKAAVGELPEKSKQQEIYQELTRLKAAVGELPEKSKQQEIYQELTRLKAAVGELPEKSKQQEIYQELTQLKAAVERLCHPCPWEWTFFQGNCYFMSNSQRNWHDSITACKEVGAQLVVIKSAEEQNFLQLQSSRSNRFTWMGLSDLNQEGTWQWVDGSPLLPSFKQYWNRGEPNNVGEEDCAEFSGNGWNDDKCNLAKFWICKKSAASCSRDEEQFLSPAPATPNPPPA
FECH: Ferrochelatase, mitochondrial (FECH, Homo sapiens, UniProt P22830)
Chain of UniProt P22830 (whole entry, looked up): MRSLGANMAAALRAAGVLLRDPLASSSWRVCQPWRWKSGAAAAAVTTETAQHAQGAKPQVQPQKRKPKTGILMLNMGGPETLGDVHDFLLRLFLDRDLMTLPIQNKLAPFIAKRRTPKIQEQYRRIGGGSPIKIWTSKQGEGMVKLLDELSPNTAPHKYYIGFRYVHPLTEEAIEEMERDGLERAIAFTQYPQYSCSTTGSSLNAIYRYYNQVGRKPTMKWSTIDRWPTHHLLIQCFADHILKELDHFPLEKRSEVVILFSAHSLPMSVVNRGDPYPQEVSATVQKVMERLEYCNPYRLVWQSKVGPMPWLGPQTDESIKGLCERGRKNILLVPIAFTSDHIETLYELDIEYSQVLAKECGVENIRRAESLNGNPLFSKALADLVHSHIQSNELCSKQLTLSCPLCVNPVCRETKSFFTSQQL
Chain of UniProt P34995 (whole entry, unmodified, looked up): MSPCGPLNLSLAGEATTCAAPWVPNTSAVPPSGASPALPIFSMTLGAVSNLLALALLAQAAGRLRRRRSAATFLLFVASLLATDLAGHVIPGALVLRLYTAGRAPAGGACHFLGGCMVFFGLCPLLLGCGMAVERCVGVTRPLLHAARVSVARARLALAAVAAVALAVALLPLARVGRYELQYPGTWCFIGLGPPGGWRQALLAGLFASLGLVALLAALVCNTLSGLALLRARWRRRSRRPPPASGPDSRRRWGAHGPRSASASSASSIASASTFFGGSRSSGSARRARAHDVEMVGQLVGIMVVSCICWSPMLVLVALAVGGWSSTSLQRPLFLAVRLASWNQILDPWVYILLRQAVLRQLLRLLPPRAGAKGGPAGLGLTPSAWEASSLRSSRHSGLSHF
Chain of UniProt P61169 (whole entry, looked up): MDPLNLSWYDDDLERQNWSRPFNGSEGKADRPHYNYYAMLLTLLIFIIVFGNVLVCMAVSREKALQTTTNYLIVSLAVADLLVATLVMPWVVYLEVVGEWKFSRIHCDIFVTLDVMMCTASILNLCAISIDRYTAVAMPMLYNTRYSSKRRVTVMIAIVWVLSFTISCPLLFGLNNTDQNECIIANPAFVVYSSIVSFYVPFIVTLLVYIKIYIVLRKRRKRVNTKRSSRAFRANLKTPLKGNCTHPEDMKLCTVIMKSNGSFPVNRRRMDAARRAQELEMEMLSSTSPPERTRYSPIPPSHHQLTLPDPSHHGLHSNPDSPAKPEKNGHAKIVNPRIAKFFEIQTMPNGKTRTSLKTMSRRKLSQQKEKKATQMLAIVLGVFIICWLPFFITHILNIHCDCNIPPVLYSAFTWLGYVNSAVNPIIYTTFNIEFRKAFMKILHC
Chain of UniProt Q704Y3 (whole entry, unmodified, looked up): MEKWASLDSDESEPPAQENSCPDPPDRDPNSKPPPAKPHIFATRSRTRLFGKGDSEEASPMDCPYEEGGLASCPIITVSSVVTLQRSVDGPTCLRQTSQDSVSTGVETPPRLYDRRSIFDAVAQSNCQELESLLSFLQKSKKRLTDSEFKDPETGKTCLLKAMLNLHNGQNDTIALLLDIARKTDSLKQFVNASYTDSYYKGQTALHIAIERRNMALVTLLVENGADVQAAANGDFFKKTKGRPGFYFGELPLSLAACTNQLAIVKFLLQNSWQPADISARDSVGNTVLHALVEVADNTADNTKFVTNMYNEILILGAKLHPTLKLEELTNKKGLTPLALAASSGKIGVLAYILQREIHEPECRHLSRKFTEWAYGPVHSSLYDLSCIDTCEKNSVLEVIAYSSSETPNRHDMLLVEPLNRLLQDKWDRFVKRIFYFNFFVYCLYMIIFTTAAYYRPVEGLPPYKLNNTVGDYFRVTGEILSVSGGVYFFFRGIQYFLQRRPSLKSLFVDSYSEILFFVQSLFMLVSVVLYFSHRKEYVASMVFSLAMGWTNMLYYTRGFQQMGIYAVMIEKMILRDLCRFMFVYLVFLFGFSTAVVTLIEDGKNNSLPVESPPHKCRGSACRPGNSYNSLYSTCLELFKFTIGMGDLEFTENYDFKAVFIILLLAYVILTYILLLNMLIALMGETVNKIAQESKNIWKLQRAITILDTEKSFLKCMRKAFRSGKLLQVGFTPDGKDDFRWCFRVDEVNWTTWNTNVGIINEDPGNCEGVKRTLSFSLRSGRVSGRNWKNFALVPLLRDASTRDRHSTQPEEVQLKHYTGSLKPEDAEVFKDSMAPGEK
Chain of UniProt P35367 (whole entry, looked up): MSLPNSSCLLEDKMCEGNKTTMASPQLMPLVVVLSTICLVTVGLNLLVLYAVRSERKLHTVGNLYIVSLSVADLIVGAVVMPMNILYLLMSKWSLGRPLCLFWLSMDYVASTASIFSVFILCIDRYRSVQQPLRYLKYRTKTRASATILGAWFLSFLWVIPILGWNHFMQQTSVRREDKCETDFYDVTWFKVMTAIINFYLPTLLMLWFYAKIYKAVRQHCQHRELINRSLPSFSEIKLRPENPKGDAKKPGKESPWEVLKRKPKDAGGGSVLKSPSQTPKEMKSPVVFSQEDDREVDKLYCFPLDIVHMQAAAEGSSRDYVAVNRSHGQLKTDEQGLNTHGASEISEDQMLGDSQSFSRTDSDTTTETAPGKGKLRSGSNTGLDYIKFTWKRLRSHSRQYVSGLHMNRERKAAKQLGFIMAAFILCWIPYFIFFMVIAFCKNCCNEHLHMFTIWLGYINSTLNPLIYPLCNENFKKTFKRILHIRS
Chain of UniProt Q99500 (whole entry, looked up): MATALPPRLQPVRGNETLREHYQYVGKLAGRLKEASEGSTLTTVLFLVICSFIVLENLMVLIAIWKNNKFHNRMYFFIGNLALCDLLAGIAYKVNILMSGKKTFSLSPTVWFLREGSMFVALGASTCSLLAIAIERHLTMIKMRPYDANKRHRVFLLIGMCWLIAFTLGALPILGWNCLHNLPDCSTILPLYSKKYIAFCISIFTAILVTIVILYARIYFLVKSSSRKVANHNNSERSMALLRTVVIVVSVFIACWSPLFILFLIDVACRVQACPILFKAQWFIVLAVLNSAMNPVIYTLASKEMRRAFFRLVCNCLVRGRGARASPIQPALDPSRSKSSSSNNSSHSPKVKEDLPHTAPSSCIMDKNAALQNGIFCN

| SMILES | target | test | system | setting | EC50 |
| --- | --- | --- | --- | --- | --- |
| CCCCC/C=C\C\C=C/C=C/C=C/[C@@H](SC[C@H](N)C(=O)NCC(=O)O)[C@@H](O)CCCC(=O)O | Cysltr2 | potentiation of cAMP | HEK293T transfected with Cysltr2 | with: forskolin 1 µM | 0.3 nM |
| N#Cc1ccsc1NC(=O)COc1cc(Cl)ccc1Cl | Kir3.1/Kir3.2 | activator, thallium flux | HEK293 |  | > 10000 nM |
| FC(F)(F)c1cc(Nc2nc(Cl)nc(Cl)n2)cc(C(F)(F)F)c1 | CD209 | binding, grating-coupled interferometry |  | Man(α1,2)Man-PEG3 chip surface | 58000 nM |
| O=C(COc1cccc(Cl)c1Cl)Nc1cc(C2CCC2)nn1C1CCC(F)(F)CC1 | Kir3.1/Kir3.2 | activator, thallium flux | HEK293 |  | 450 nM |
| Ic1ccc(N2CCN(Cc3c[nH]c4ncccc34)CC2)cc1 | D(2) dopamine receptor (Drd2, Rattus norvegicus, UniProt P61169) | cAMP response, antagonist, AlphaScreen | HEK293 stably expressing D2 | with: (-)-quinpirole 60 nM | 1900 ± 2300 nM |
| O=C(ON1C(=O)CCC1=O)c1cc(C(F)(F)F)cc(C(F)(F)F)c1 | CD209 | binding, grating-coupled interferometry |  | Man(α1,2)Man-PEG3 chip surface | 16000 nM |
| Cc1nn(-c2nc3c(F)cc(F)cc3s2)c(O)c1C(c1ccc(C(F)(F)F)cc1)c1c(C)nn(-c2nc3c(F)cc(F)cc3s2)c1O | Cyclic GMP-AMP synthase, catalytic domain; with DNA (CGAS, Homo sapiens, UniProt Q8N884) | cGAS-DNA condensate disruption |  | concentration not given, with: Cy3-labelled DNA | 4900 ± 700 nM |
| CCCCCCCC/C=C\CCCCCCCC(=O)NCCc1ccc(O)c(O)c1 | Transient receptor potential cation channel subfamily V member 1 (Trpv1, Mus musculus, UniProt Q704Y3, S511A) | ion current, agonist, whole-cell patch clamp |  | 24 °C, S511A, +80 mV | 240 ± 50 nM |
| COc1cc(Nc2ncc3c(n2)-c2ccc(Cl)cc2C(c2c(F)cccc2OC)=NC3)ccc1C(=O)NCCOCCOCCNC(=O)COc1cccc2c1C(=O)N(C1CCC(=O)NC1=O)C2=O (stereo not shown) | FECH | binding, kinobead competition | MV4-11 cell lysate |  | 9830 nM |
| N#Cc1ccsc1NC(=O)COc1cccc(Cl)c1Cl | Kir3.1/Kir3.2 | activator, thallium flux | HEK293 |  | 1300 nM |
| Nc1ncnc2c1ncn2[C@@H]1O[C@H](COP(=O)(O)OP(=O)(O)OC[C@H]2OC(O)[C@H](O)[C@@H]2O)[C@@H](O)[C@H]1O (stereo partly shown) | TRPM2 (Nematostella vectensis, UniProt A7T1N0, K147A) | channel activation, activator, inside-out patch clamp |  | 25 °C, -20 mV, with: 125 µM Ca2+, 2.5 µM diC8-PIP2 | 9900 ± 1200 nM |
| O=C(COc1cc(Cl)ccc1Cl)Nc1cc(C2CCC2)nn1C1CCOCC1 | Kir3.1/Kir3.2 | activator, thallium flux | HEK293 |  | 1100 nM |
| CCCCCCCCCCCCC/C=C/[C@@H](O)[C@@H](N)COP(=O)(O)O | Sphingosine 1-phosphate receptor 3 (S1PR3, Homo sapiens, UniProt Q99500) | agonist, cell-based |  |  | 24.5 nM |
| C#Cc1ccc(C(F)(F)F)cc1C=O | CD209 | binding, plate-based HRP |  | overnight, room temperature | 35000 nM |
| COc1cc(Nc2ncc3c(n2)-c2ccc(Cl)cc2C(c2c(F)cccc2OC)=NC3)ccc1C(=O)O | FECH | binding, kinobead competition | MV4-11 cell lysate |  | > 30000 nM |
| Cn1cc2c(C(=O)O)ccc(NS(=O)(=O)c3ccc(OCC4CCC4)c(Cl)c3)c2n1 | Histamine H1 receptor (HRH1, Homo sapiens, UniProt P35367) | antagonist |  |  | > 10000 nM |
| FC(F)=Cc1cc(C(F)(F)F)cc(C(F)(F)F)c1 | CD209 | binding, plate-based HRP |  | overnight, room temperature | 84000 nM |
| O=C(COP(=O)(O)O)[C@@H](O)[C@H](O)[C@H](O)COP(=O)(O)O | Pyruvate kinase PKM (PKM, Homo sapiens, UniProt P14618) | pyruvate kinase activity, activator | HeLa cell lysate | with: AIM | 814 ± 41.8 nM |
| O=C(COc1ccc(C(F)(F)F)cc1C(F)(F)F)Nc1cc(C2CC2)nn1C1CCOCC1 | Kir3.1/Kir3.2 | activator, thallium flux | HEK293 |  | 349 nM |
| CCCCC/C=C\C\C=C/C=C/C=C/[C@@H](SC[C@H](N)C(=O)O)[C@@H](O)CCCC(=O)O | Cysltr2 | potentiation of cAMP | HEK293T transfected with Cysltr2 | with: forskolin 1 µM | 20.6 nM |
| CCc1cc(NC(=O)COc2cc(Cl)ccc2Cl)n(C2CCOCC2)n1 | Kir3.1/Kir3.2 | activator, thallium flux | HEK293 |  | 180 nM |
| C[C@]12CCC(=O)C=C1CC[C@@H]1[C@@H]2[C@@H](O)C[C@@]2(C)[C@H]1CC[C@]2(O)C(=O)CO | Mineralocorticoid receptor (NR3C2, Homo sapiens, UniProt P08235) | reporter gene, agonist, Gaussia luciferase reporter |  | with: 18β-glycyrrhetinic acid 50/100 µM | ~70 nM |
| COc1c(Nc2cc(C(F)(F)F)cc(C(F)(F)F)c2)c(=O)c1=O | CD209 | binding, grating-coupled interferometry | Man(α1,2)Man-PEG3 chip | 2 h, no Tris | 144000 nM |
| O=C(COc1ccc(Cl)cc1Cl)Nc1cc(C2CCC2)nn1C1CCOCC1 | Kir3.1/Kir3.2 | activator, thallium flux | HEK293 |  | 740 nM |
| CCCCC[C@H](O)/C=C/[C@H]1[C@H](O)CC(=O)[C@@H]1C/C=C\CCCC(=O)O | Prostaglandin E2 receptor EP1 subtype (PTGER1, Homo sapiens, UniProt P34995, G92A) | IP1 accumulation, agonist | AD293 | EP1 G92A mutant | 26.1 nM |

Some of these lines once more:
| SMILES | target | test | system | setting | EC50 |
| --- | --- | --- | --- | --- | --- |
| C[C@]12CCC(=O)C=C1CC[C@@H]1[C@@H]2[C@@H](O)C[C@@]2(C)[C@H]1CC[C@]2(O)C(=O)CO | Mineralocorticoid receptor (NR3C2, Homo sapiens, UniProt P08235) | reporter gene, agonist, Gaussia luciferase reporter |  | with: 18β-glycyrrhetinic acid 50/100 µM | ~70 nM |
| COc1c(Nc2cc(C(F)(F)F)cc(C(F)(F)F)c2)c(=O)c1=O | CD209 | binding, grating-coupled interferometry | Man(α1,2)Man-PEG3 chip | 2 h, no Tris | 144000 nM |
